Assay results of several laboratories.
Every numbered part comes from another study and shows a few of its results, in no order. Positions count from the first letter of the parent shown.

Set 1 — target: CCND2, cyclin fold, Cln2 fusion (human); technique: yeast growth competition, sequencing; sample: yeast; setting: weak parent motif; reference: not given; direction: higher = stronger binding
Starting sequence: WEE1 docking peptide (human); HKTFRKLRLFDTP
`T12L`: “normalised enrichment score” -0.457.
Under “normalised enrichment score”, `T12M` is recorded as 0.0718.
`D11R` — result for “normalised enrichment score”: 0.0944.
`R5Y`: “normalised enrichment score” -0.403.
`K6L` — result for “normalised enrichment score”: 0.197.
`F4P` — result for “normalised enrichment score”: 0.115.
For `L7S`, “normalised enrichment score” read -0.422.
`T3Q` — result for “normalised enrichment score”: -0.14.
`L7A` — result for “normalised enrichment score”: -0.169.

Set 2 — technique: DHFR PCA, deep sequencing; sample: yeast; added: (+)-ABA 710 µM; reference: wild-type fitted maximum; direction: higher = stronger binding
Target: ABI1, truncated, D143A, DHFR fusion (Arabidopsis thaliana)
Setting: methotrexate growth selection, single substitutions
Starting sequence: PYL1, truncated, DHFR fusion (Arabidopsis thaliana); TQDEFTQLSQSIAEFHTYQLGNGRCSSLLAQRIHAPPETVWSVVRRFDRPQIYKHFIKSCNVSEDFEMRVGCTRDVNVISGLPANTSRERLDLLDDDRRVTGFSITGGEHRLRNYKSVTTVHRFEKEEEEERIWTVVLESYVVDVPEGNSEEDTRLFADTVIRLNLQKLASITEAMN; partner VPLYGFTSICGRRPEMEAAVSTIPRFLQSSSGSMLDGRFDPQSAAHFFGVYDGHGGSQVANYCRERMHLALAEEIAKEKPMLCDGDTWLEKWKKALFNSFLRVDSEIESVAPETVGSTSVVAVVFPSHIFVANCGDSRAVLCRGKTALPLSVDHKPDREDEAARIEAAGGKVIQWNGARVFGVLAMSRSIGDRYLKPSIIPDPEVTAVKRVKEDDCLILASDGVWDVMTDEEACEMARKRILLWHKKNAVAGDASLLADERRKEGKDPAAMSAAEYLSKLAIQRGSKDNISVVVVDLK
Under “relative binding score”, `F157S` is recorded as 3.53%.
Under “relative binding score”, `V145M` is recorded as 86.6%.
`P37F`: “relative binding score” 72%.
`P83S`: “relative binding score” 85.8%.
Under “relative binding score”, `T173I` is recorded as 96.8%.
`S27W` — result for “relative binding score”: 55.4%.
For `T154E`, “relative binding score” read 2.99%.

Set 3 — technique: universal PBM; form: double-stranded DNA, one strand shown; sample: in vitro; concentration: not given; direction: higher = stronger binding
Target: Sal-like protein 4, full length isoform B (SALL4, Homo sapiens, UniProt Q9UJQ4-2, residues 1-616)
Setting: 8-mer, flanks averaged, mean of replicates
Target sequence (chain): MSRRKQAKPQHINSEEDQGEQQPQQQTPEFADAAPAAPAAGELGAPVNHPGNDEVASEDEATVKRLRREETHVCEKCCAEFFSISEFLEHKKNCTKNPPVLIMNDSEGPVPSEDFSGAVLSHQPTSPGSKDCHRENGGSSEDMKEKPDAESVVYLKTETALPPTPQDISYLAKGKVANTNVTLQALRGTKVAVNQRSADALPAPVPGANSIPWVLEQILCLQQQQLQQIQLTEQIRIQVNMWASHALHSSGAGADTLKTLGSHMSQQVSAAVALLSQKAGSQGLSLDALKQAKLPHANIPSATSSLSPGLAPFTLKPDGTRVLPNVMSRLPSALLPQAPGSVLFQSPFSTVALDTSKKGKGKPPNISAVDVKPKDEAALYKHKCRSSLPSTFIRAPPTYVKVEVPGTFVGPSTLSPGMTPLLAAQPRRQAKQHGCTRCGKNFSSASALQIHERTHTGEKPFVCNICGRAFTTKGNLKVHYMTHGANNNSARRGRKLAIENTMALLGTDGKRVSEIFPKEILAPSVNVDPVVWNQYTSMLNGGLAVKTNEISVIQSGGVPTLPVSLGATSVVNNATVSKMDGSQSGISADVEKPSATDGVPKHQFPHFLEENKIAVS
`ATGAACAG` has an E-score of 0.13.
With `TGAGTCAA` the E-score was 0.0989.
The E-score of `AGCCCACG` is reported as -0.225.
With `CAACGGTG` the E-score was -0.265.
`AAACATGT` gave an E-score of 0.248.
`ACGTGTCT` has an E-score of 0.0813.
`GGGACCAC` has an E-score of -0.252.

Single results of other studies
`PhoQ, residues 284 288 289 292 302 303 SSCCRF` gave a fold induction of 14.6 (PhoP, residues 12 14 15 18 19 HLGGL (Escherichia coli, UniProt P23836); Sort-seq, item: YFP reporter; E. coli; PhoQ-PhoP variant library, added: 10 µM Mg2+; reference: high Mg2+ state, higher = stronger signaling).

Excerpt of the above (set 2):
Under “relative binding score”, `V145M` is recorded as 86.6%.
`P37F`: “relative binding score” 72%.
`P83S`: “relative binding score” 85.8%.
Under “relative binding score”, `T173I` is recorded as 96.8%.
